Results gathered from unrelated publications.
Lines come from different studies, so protocols differ. “And” joins repeats or separate records; there may be more than shown. ± marks the error that the study gave.

`COC(=O)C1CN1S(=O)(=O)c1ccc2cc(C)ccc2c1` (centres unmarked): “tumour growth inhibition” 51% (mouse, Lewis lung carcinoma; ip, 100 mg/kg, 336 h).
The tumour volume of `COc1cc(N2CCN(C(=O)C3CCCN3)CC2)ccc1Nc1ncc(Cl)c(Nc2ccccc2P(C)(C)=O)n1` (centres unmarked) is reported as 160 mm3 and 133 mm3 and 131 mm3 and 76.6 mm3 and 163 mm3 (NCI-H3122 xenograft, female nude mouse; intraperitoneal, 10 mg/kg, every other day).
`COc1cnc2cccc(N3CCc4c(cc(Cn5ccnc5)cc4-c4cn(C)nc4C(F)(F)F)C3=O)c2c1` has a tumour volume of 165 mm3 and 100 mm3 and 149 mm3 and 143 mm3 and 158 mm3 (BALB/c nude mouse, MV4-11 xenograft; intraperitoneal, 50 mg/kg, day 10 after inoculation).
`CC1(C)CCC(CN2CCN(c3ccc(C(=O)NS(=O)(=O)c4ccc(NCC5CCOCC5)c([N+](=O)[O-])c4)c(Oc4cnc5[nH]ccc5c4)c3)CC2)=C(c2ccc(Cl)cc2)C1` — result for “tumour growth inhibition”: 104% (RS4;11, mouse RS4;11 xenograft; oral, 15 mg/kg once daily, day 14).
For `CC(C)C[C@H](NC(=O)[C@H](Cc1ccccc1)NC(=O)[C@H](C)NC(=O)[C@@H](CS)NC(=O)CNC(=O)[C@H](N)CO)C(=O)N[C@@H](CO)C(=O)N[C@H](C(=O)N[C@@H](CCCCN)C(=O)N[C@@H](CCCCN)C(=O)N[C@@H](CCC(N)=O)C(=O)N[C@@H](Cc1ccccc1)C(=O)N[C@@H](CCC(=O)O)C(=O)N[C@@H](CCC(=O)O)C(=O)N[C@@H](CC(C)C)C(=O)N[C@H](C(=O)N[C@@H](CC(C)C)C(=O)NCC(=O)N[C@@H](CCC(=O)O)C(=O)N[C@@H](Cc1ccccc1)C(=O)N[C@@H](CC(C)C)C(=O)N[C@H](CCCCN)C(=O)N[C@H](CC(C)C)C(=O)N[C@H](CC(=O)O)C(=O)N[C@@H](CCCNC(=N)N)C(=O)N[C@H](CCCNC(=N)N)C(=O)N[C@@H](CCCNC(=N)N)C(=O)N[C@@H](CCCCN)C(=O)O)[C@@H](C)O)C(C)C`, the tumour volume was about 20% (female nude mouse A549 xenograft; intratumoral, 50 µM, 28 days, three times weekly; reference: untreated).
`COc1c(Cl)cccc1Nc1c(-c2ccncc2OC[C@@H]2COCCO2)[nH]c2c1C(=O)NCC2`: “tumour weight T/C” 0.16 (mouse, NSCLC PDX sample A; oral, 25 mg/kg once daily, day 27, unit not given; reference: vehicle).
Under “tumour growth inhibition”, `CC(C)c1ccccc1[C@@H]1CCCN1C1CC2(CCN(c3ccc(C(=O)NS(=O)(=O)c4ccc(NC[C@H]5CC[C@](C)(O)CC5)c([N+](=O)[O-])c4)c(Oc4cnc5[nH]ccc5c4)c3)CC2)C1` is recorded as 84% (mouse Toledo xenograft; oral, 15 mg/kg once daily, day 31).
`CO.Cc1ccc2c(Cl)cc(Cl)c([O-])c2n1.Cc1ccc2c(Cl)cc(Cl)c([O-])c2n1.[Co+2].c1ccc2nc3c4cccnc4c4ncccc4c3nc2c1` gave a tumour weight of 0.88 ± 0.102 g (nude mouse, HeLa xenograft; 2.0 mg/kg).
The tumour uptake of `CSCC[C@@H]1NC(=O)[C@H](CC(N)=O)NC(=O)[C@@H](NC(=O)CCOCCOCCOCCNC(=O)CN2CCN(CC(=O)O)CCN(CC(=O)O)CC2)CSSC[C@@H](C(=O)O)NC(=O)[C@H](C(C)C)NC(=O)[C@H](CCSC)NC(=O)[C@@H]2CCCN2C(=O)[C@H]([C@@H](C)O)NC(=O)[C@H](Cc2c[nH]cn2)NC1=O` [gallium-68 labelled] is reported as 0.37 ± 0.02 %ID/g (PET; mouse, CHO-hLAG-3 xenograft; iv, 60 min).
Under “tumour growth inhibition”, `CC(C)c1ccc(N(C)c2ccc3c(c2)OCC[C@H]3CNc2cnccc2C(=O)O)cc1` is recorded as 52% (mouse, sample A gastric PDX; 50 mg/kg, day 38).
`C=CC(=O)N1CC2C(=O)N(CCN(C)C)c3c(c4cc(Cl)c(-c5c(O)cccc5F)nc4n(-c4c(C)ccnc4C(C)C)c3=O)N2CC1C` (centres unmarked): “tumour growth inhibition” 112% (NCI-H358, mouse xenograft; oral, 30 mg/kg once daily).
